Published values from different studies.
Several values in a cell are separate wells, animals, samples, runs or records. ± marks the error that the study gave.
IDE: Insulin-degrading enzyme (IDE, Homo sapiens, UniProt P14735)

`CCOc1ccc2cc(-c3nn(CC4CCN(C)CC4)c4ncnc(N)c34)ccc2c1`: “% of maximum PPE” 17.3% (Theileria equi; hydroethidine flow cytometry; USDA Florida; 9 µM, 72 h).
`Cc1[nH]c(C)c(-c2ccc(OCc3cc(C(F)(F)F)cc(C(F)(F)F)c3)nc2)c(=O)c1Br` gave an IC50 of 105 ± 42 nM (Plasmodium yoelii; 17XL; 384-well).
For `OC(CCN1CCCCC1)(c1ccccc1)C1CC2C=CC1C2` (centres unmarked), “delta power change, EEG, in Pz-O1” read 46.9% (resting-state EEG; healthy elderly humans; oral, 4 mg, eyes open, LS mean; baseline: baseline).
`CCOc1ccc2cc(-c3nn(CC4CCN(C)CC4)c4ncnc(N)c34)ccc2n1`: “% of maximum PPE” 103% (Theileria equi; hydroethidine flow cytometry; USDA Florida; 0.3 µM, 72 h).
Under “log2 fold change”, `c1coc(-c2n[nH]cc2-c2ccnc3ccccc23)c1` is recorded as -0.29 (BCK1 (Candida albicans); kinase binding, MIB/MS competition; Candida albicans lysate; 1 µM; baseline: DMSO).
`CC(C)C[C@H](NC(=O)C[C@H](O)[C@H](CC(C)C)NC(=O)[C@H](Cc1c[nH]cn1)NC(=O)CNC(=O)[C@@H](NC(=O)[C@H](C)NC(=O)[C@H](Cc1c[nH]c2ccccc12)NC(=O)[C@H](CCC(N)=O)NC(=O)[C@@H](Cc1ccccc1)NC(=O)COCCOCCNC(=O)CCC(C(=O)O)N1CCN(CC(=O)O)CCN(CC(=O)O)CC1)C(C)C)C(N)=O` (some centres unmarked) [lutetium-177 labelled] gave a tissue uptake of 0.3 ± 0.1 %ID/g (female BALB/c nu/nu mice, bone; intravenous, 50 pmol, 1 h).
With `Cn1cc(/C=C/C(=O)c2cccc(F)c2)cc1/C=C/C(=O)NO` the viability was 123% (HBL-1; 0.5 µM, 120 h).
With `O=C(Nc1cccc(C2=NCCN2)c1)Nc1cccc(C2=NCCN2)c1` the inhibition was 10.1% (Theileria equi; parasite growth, flow cytometry; horse erythrocytes, USDA Florida strain; 0.172 µM, 72 h).
The viability of `O=C(O)CCNc1cc(N2CCc3ccccc3CC2)nc(-c2ccccn2)n1` is reported as 122% (HBL-1; 0.1 µM, 120 h).
`Cc1[nH]c(C)c(-c2ccc(-c3ccccc3Cl)nc2)c(=O)c1Br` has an IC50 of 463 ± 139 nM (Plasmodium yoelii; 17XL; 384-well).
The viability of `CCCOc1ccn2c(C(C)=O)cc(-c3ccccc3S(C)(=O)=O)c2c1` is reported as 88.4% (HBL-1; 1 µM, 120 h).
`Cc1[nH]c(C)c(-c2ccc(-c3ccc(F)cc3)cc2)c(=O)c1Br` has an IC50 of 721 ± 227 nM (Plasmodium yoelii; 17XL; 384-well).
Under “% of maximum PPE”, `CCOc1ccc2cc(-c3nn(CC4CCNCC4)c4ncnc(N)c34)ccc2c1` is recorded as 5.28% (Theileria equi; hydroethidine flow cytometry; USDA Florida; 30 µM, 72 h).
`O=C(O)CNC(=O)Cc1ccccc1` has a sarcomere length of 1.72 µm (ventricular cardiomyocytes, C57BL/6 mouse; dose not given, 0.068 s).
`Cc1ccccc1-c1ccc([C@H]2[C@@H](CO)N3C(=O)CN(C(=O)Nc4ccc(F)cc4)C[C@H]23)cc1` has an EC50 of 470 nM (IDE; enzyme activity, inhibitor, fluorogenic kinetic; together with: Mca-RPPGFSAFK(Dnp)-OH substrate).
`O=C(Nc1ccccc1O)c1ccc(S(=O)(=O)c2ccc(Cl)cc2)cc1` has an IC50 of 8190 ± 1260 nM (Plasmodium yoelii; 17XL; 384-well).
The plaque reduction of `CC(C)n1ncc2c(C(=O)NCC3(C)CNC3)cc(C3CC3)nc21` is reported as 100% (enterovirus D68; recombinant US/MO/14-18947 wild type; 15000 nM).
With `Nc1ncnc2c1ncn2[C@@H]1C=C(CO)[C@@H](O)[C@H]1O` the viability was 97.6% (HBL-1; 0.1 µM, 120 h).
Under “log2 fold change”, `Cn1cc(-c2ccc(-c3cncc(Cl)c3N3CCC4(CCNC4=O)CC3)cc2)cn1` is recorded as 1.83 (COLO 205; gene expression, microarray, item: INHBB mRNA; concentration not given, 6 h; baseline: untreated cells).
For `NC(=O)c1cnc2[nH]ccc2c1N[C@@H]1[C@@H]2CC3C[C@H]1C[C@@](O)(C3)C2`, “CD4+CD28+ naive T-cell change” read -0.77% (flow cytometry; Japanese healthy men, blood; oral, 30 mg twice daily, 72 h after day 7 dose; baseline: baseline).
`CC(C)NCC(O)c1ccc(O)c(O)c1` (centres unmarked) has a sarcomere length of 1.69 µm (ventricular cardiomyocytes, C57BL/6 mouse; dose not given, 0.12 s).
`O=C(O)CCCc1ccccc1` gave a viability of 122% (HBL-1; 0.5 µM, 120 h).
For `Oc1ccccc1-c1n[nH]cc1-c1ccnc2ccccc12`, “log2 fold change” read 0.37 (FPK1 (Candida albicans); kinase binding, MIB/MS competition; Candida albicans lysate; 10 µM; baseline: DMSO).
`N#Cc1ccc(CN2CCC(Oc3ccc(NC(=O)c4cccs4)cc3Cl)CC2)cc1` has an IC50 of 2430 ± 374 nM (Plasmodium yoelii; 17XL; 384-well).
For `Cc1ncsc1-c1ccc([C@H](C)NC(=O)[C@@H]2C[C@@H](O)CN2C(=O)[C@@H](NC(=O)COCCOCCOCCOCCOCC(=O)N2CC(Nc3cc(C(=O)NC[C@H](O)CN4CCc5ccccc5C4)ncn3)C2)C(C)(C)C)cc1`, “time to degradation” read over 48 h (human MEP50; degrader, Western blot; MDA-MB-468; 2 µM).
`O=C(/C=C/C=C/C=C/C1CCCCC1)NC1=C[C@@](O)(/C=C/C=C/C=C/C(=O)NC2=C(O)CCC2=O)[C@@H]2O[C@@H]2C1=O` has a GI50 of 7940 nM (hcc1359; cell growth, inhibitor, CellTiter-Glo luminescence; 78 h; baseline: day 0 cell count).
`Cc1[nH]c(C)c(-c2ccc(-c3ccccc3C(F)(F)F)nc2)c(=O)c1Br` has an IC50 of 984 ± 576 nM (Plasmodium yoelii; 17XL; 384-well).
With `C[C@H]1O[C@@H](O[C@H]2CC[C@@]3(C)[C@@H](CC[C@]4(C)[C@@H]3C=C[C@]35OC[C@@]6(CCC(C)(C)C[C@H]63)[C@@H](O)C[C@]54C)[C@]2(C)CO)[C@H](O)[C@@H](O[C@@H]2O[C@H](CO)[C@@H](O)[C@H](O)[C@H]2O)[C@H]1O` the total cholesterol was 1.92 mM and 1.57 mM and 1.49 mM and 1.75 mM and 1.42 mM (chronic-plus-binge ethanol mice, plasma; oral, 10 mg/kg/day for 7 d, 168 h).
For `COc1ccc(F)cc1C(=O)NCc1ccc(-c2nn([C@@H](C)C(F)(F)F)c(N)c2C(N)=O)cc1`, the inhibition was 1.4% (MEK1/MEK2 human; probe binding, competitive chemoproteomics; human PBMCs; 0.1 µM).
The viability of `O=C(c1ccc(C(=O)N2CCC(N3CCCC3)CC2)c(Nc2ccccc2)c1)N1CCC(N2CCCC2)CC1` is reported as 95.8% (HBL-1; 1 µM, 120 h).
`CCOC(=O)c1c(-c2ccccc2)nc2c(sc3ccccc32)c1O` has an IC50 of 102 ± 21 nM (Plasmodium yoelii; 17XL; 384-well).
For `Nc1ncnc2c1ncn2[C@@H]1O[C@H](C[C@@H](N)CC[C@H](N)C(=O)O)[C@@H](O)[C@H]1O`, the viability was 120% (HBL-1; 0.5 µM, 120 h).
For `CCCCCCCc1c(C)[nH]c2ccccc2c1=O`, the IC50 was 195 ± 89 nM (Plasmodium yoelii; 17XL; 384-well).
For `O=C(/C=C/C#Cc1cccc(NS(=O)(=O)c2ccccc2)c1)NO`, the viability was 95.9% (HBL-1; 0.1 µM, 120 h).
`Cc1ccccc1S(=O)(=O)N1CCCCN2[C@H](CO)[C@@H](c3ccc(-c4cccc(F)c4C(F)(F)F)cc3)[C@@H]2C1` gave an EC50 of 170 nM (IDE; enzyme activity, inhibitor, fluorescence kinetic; together with: Mca-RPPGFSAFK(Dnp)-OH substrate).

Repeated from above:
`O=C(/C=C/C=C/C=C/C1CCCCC1)NC1=C[C@@](O)(/C=C/C=C/C=C/C(=O)NC2=C(O)CCC2=O)[C@@H]2O[C@@H]2C1=O` has a GI50 of 7940 nM (hcc1359; cell growth, inhibitor, CellTiter-Glo luminescence; 78 h; baseline: day 0 cell count).
`Cc1[nH]c(C)c(-c2ccc(-c3ccccc3C(F)(F)F)nc2)c(=O)c1Br` has an IC50 of 984 ± 576 nM (Plasmodium yoelii; 17XL; 384-well).
With `C[C@H]1O[C@@H](O[C@H]2CC[C@@]3(C)[C@@H](CC[C@]4(C)[C@@H]3C=C[C@]35OC[C@@]6(CCC(C)(C)C[C@H]63)[C@@H](O)C[C@]54C)[C@]2(C)CO)[C@H](O)[C@@H](O[C@@H]2O[C@H](CO)[C@@H](O)[C@H](O)[C@H]2O)[C@H]1O` the total cholesterol was 1.92 mM and 1.57 mM and 1.49 mM and 1.75 mM and 1.42 mM (chronic-plus-binge ethanol mice, plasma; oral, 10 mg/kg/day for 7 d, 168 h).
